# Assay results pooled from the literature.
# Compare with care: the assays were run in different laboratories. Numbers after ± are the reported error.
# Cell line: HEK-293T
SMILES,test,setting,scale,quantity,result
O=c1[nH]nc(OCCCc2ccc(Cl)cc2)c(NCc2cccnc2)c1Br,"RNA-seq GSEA, item: HALLMARK_KRAS_SIGNALING_UP",concentration not given,direction not given,normalized enrichment score,-0.975
O=c1[nH]cc(F)c(=O)[nH]1,"cell viability, MTS","50 µM, 72 h",,inhibition,73 ± 2.35%
C=C(C)C(=O)[O-].[Na+],TMT mass spectrometry,"20 mM, 24 h, ratio cutoff 1.2",,methacrylated protein count,254
CC(C)Cc1ccc([C@@H](C)[C@H](O)CC(C)C)cc1 (racemic),,"250 µM, 48 h",,cells killed,95%
CCc1cnc(N2CCC(c3nc(COc4ccc(-n5cnnn5)cc4)cs3)CC2)nc1,"RNA-seq GSEA, item: HALLMARK_E2F_TARGETS",concentration not given,direction not given,normalized enrichment score,-1.54
C=C1C[C@](OC)([C@H](OCOC/C=C/B2OC(CC)(CC)C(CC)(CC)O2)C(=O)NC[C@@H]2C[C@@H](OC)C(C)(C)[C@@H](C[C@@H](COC)OC)O2)O[C@H](C)[C@@H]1C,"cell viability, sulforhodamine B","48 h, 37 °C, added: H2O2 100 µM",,IC50,0.061 ± 0.006 µM
COCCn1cc(COc2cccc(Cc3cnc(NC(=O)CSc4nc(-c5ccccc5)cc(-c5ccccc5)n4)s3)c2)nn1,"cell viability, MTS",10 µM,,inhibition,11.6 ± 1.6%
O=C(Nc1ccc(-c2ccccc2)cc1)c1cnn(-c2ccc([N+](=O)[O-])cc2)c1C(F)(F)F,"cell viability, MTS","50 µM, 72 h",,inhibition,13.3 ± 2%
CCCCCCCCCCCCCCCC(=O)N[C@@H](CO)C(=O)N[C@H]1CNC(=O)[C@@H]2CCCN2C(=O)[C@H]([C@@H](C)CC)NC(=O)[C@@H]([C@@H](C)O)NC(=O)CNC(=O)[C@H](CO)NC(=O)CNC(=O)[C@H](CC(=O)O)NC(=O)CNC(=O)[C@H]2CCCCN2C1=O,"cytotoxicity, MTT",,,IC50,> 128 µg/mL
Cc1cc(C)nc(SCC(=O)Nc2ncc(Cc3cccc(OCc4cn(Cc5ccc(OCCN6CCOCC6)cc5)nn4)c3)s2)n1,"cell viability, MTS",10 µM,,inhibition,63 ± 6.5%

# Repeated from above:
SMILES,test,setting,scale,quantity,result
C=C(C)C(=O)[O-].[Na+],TMT mass spectrometry,"20 mM, 24 h, ratio cutoff 1.2",,methacrylated protein count,254
C=C1C[C@](OC)([C@H](OCOC/C=C/B2OC(CC)(CC)C(CC)(CC)O2)C(=O)NC[C@@H]2C[C@@H](OC)C(C)(C)[C@@H](C[C@@H](COC)OC)O2)O[C@H](C)[C@@H]1C,"cell viability, sulforhodamine B","48 h, 37 °C, added: H2O2 100 µM",,IC50,0.061 ± 0.006 µM
